Experimental data of several laboratories.
Protocols differ between the studies behind these lines. ± gives the spread as reported.
Gonadotropin-releasing hormone receptor: Gonadotropin-releasing hormone receptor (Rattus norvegicus, UniProt P30969)
Chain of UniProt P30969 (whole entry, looked up): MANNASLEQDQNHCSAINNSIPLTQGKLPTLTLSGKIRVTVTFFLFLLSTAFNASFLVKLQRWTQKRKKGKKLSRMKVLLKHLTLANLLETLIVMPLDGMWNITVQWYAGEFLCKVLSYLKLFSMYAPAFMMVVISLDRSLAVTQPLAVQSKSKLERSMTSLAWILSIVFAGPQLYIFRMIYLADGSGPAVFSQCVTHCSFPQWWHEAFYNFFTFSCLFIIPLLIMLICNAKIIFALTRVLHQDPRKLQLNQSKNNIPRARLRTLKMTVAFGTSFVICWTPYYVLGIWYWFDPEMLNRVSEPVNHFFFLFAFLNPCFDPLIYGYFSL
lasR: Transcriptional activator protein LasR (lasR, Pseudomonas aeruginosa, UniProt P25084)
Melanocortin receptor 5: Melanocortin receptor 5 (Mus musculus, UniProt P41149)
Chain of UniProt P41149 (whole entry, looked up): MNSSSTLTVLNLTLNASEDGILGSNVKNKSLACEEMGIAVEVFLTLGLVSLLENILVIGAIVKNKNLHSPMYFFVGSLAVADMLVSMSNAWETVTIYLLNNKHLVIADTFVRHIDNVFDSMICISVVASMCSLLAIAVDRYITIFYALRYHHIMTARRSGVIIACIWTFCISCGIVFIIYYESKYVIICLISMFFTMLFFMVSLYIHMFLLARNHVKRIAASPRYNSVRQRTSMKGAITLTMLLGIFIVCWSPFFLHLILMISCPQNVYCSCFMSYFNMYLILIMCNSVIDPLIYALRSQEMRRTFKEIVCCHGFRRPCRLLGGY
ATP5F1B/ATP5F1A/ATP synthase F(1) complex subunit gamma, mitochondrial: ATP5F1B/ATP5F1A/ATP synthase F(1) complex subunit gamma, mitochondrial (Homo sapiens, UniProt P06576+P25705+P36542)
Chain of UniProt P25705 (whole entry, looked up): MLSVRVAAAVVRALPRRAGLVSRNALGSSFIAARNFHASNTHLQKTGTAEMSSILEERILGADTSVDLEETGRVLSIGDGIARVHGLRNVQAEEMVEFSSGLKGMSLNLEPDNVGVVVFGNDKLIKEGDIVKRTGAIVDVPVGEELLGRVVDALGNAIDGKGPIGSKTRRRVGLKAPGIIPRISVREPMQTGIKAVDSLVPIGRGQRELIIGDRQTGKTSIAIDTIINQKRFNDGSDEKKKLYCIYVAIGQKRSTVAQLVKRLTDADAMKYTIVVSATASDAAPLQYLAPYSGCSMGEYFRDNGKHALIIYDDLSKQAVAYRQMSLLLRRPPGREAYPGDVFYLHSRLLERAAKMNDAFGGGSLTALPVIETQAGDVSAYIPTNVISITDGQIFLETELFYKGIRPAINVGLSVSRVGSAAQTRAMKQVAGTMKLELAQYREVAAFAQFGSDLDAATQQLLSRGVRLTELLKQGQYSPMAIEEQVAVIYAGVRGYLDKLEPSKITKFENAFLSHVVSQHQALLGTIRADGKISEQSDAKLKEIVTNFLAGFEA
Chain of UniProt P36542 (whole entry, looked up): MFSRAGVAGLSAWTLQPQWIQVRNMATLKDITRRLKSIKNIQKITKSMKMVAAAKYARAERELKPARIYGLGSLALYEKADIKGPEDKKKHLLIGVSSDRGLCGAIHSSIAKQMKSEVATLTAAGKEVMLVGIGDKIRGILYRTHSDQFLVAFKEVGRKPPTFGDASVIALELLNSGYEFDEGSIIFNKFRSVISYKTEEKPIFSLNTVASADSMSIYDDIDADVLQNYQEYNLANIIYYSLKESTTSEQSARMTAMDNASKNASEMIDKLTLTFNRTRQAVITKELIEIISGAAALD
Chain of UniProt P06576 (whole entry, looked up): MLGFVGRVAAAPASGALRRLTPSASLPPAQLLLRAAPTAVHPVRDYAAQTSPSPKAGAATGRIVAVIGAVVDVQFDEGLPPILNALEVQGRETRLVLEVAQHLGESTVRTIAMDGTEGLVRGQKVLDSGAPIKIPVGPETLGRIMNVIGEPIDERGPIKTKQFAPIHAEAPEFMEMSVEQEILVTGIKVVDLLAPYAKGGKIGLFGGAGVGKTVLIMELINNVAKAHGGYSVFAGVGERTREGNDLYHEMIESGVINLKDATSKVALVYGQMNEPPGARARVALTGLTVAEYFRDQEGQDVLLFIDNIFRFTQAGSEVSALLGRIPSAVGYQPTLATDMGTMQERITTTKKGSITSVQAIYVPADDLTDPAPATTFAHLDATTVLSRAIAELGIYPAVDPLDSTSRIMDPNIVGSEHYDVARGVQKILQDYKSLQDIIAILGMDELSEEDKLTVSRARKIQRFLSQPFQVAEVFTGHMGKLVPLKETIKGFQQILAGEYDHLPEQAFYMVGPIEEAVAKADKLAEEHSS
Melanocortin receptor 3: Melanocortin receptor 3 (Mus musculus, UniProt P33033)
Chain of UniProt P33535 (whole entry, looked up): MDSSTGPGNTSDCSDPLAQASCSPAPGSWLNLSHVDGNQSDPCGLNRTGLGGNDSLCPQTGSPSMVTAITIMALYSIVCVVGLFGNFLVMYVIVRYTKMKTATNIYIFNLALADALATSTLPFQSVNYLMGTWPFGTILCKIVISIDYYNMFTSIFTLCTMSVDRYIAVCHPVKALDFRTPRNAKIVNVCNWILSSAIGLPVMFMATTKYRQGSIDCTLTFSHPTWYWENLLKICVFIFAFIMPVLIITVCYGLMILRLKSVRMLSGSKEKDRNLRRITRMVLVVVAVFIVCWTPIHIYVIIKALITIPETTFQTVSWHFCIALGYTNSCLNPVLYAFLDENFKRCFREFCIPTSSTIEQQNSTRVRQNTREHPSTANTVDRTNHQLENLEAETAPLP
Chain of UniProt P33033 (whole entry, looked up): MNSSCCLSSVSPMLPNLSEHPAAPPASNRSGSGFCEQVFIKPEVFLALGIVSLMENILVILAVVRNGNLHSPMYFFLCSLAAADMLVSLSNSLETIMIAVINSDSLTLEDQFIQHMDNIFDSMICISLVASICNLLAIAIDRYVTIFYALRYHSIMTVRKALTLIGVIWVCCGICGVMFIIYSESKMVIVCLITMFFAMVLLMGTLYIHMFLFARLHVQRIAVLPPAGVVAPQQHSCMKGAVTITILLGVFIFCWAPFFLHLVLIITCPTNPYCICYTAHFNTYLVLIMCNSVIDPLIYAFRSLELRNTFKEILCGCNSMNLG
Chain of UniProt Q9Y2J8 (whole entry, looked up): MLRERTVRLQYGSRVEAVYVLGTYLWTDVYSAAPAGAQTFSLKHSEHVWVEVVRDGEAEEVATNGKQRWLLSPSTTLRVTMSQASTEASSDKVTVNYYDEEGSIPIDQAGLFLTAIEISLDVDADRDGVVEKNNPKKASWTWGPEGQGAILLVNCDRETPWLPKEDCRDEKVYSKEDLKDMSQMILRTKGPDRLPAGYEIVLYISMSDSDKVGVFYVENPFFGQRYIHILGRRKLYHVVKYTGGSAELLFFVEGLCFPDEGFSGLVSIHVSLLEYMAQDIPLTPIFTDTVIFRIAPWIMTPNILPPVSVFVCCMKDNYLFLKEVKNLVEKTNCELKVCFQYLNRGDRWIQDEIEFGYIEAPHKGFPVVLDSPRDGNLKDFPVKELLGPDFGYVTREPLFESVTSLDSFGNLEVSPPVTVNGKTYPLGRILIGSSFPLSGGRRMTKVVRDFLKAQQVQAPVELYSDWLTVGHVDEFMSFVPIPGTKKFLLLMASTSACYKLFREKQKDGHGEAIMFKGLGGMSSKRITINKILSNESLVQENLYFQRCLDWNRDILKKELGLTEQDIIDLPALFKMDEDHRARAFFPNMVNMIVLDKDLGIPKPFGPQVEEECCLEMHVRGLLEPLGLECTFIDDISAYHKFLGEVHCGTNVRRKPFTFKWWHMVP
Chain of UniProt P50391 (whole entry, looked up): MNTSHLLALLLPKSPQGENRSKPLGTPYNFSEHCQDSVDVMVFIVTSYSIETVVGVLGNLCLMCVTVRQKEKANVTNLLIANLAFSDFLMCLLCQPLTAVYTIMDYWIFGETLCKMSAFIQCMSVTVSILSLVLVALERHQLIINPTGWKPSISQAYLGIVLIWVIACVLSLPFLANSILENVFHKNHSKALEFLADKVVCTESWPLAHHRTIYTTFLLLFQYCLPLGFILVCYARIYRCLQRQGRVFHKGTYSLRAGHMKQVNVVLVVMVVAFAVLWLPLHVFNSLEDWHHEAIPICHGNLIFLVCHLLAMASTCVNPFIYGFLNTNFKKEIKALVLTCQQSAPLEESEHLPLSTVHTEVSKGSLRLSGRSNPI
Chain of UniProt P37288 (whole entry, looked up): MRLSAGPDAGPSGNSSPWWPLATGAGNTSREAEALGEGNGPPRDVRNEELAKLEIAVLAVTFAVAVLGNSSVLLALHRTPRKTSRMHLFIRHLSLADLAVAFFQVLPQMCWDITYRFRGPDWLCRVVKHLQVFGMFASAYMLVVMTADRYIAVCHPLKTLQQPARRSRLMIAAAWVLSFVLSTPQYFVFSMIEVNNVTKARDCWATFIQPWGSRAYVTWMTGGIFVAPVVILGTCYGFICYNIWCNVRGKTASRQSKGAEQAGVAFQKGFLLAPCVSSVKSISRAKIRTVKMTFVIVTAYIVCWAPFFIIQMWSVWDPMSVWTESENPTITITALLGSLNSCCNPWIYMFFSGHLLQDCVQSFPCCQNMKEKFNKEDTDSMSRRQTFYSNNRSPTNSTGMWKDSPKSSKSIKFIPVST

`N[C@H](C(=O)N1CCCC1)C1CCN(c2nccc3c(-c4ncc(Cl)cc4Cl)cccc23)CC1` gave an EC50 of 2040 nM (PADI2 (Homo sapiens, UniProt Q9Y2J8); thermal stability).
The EC50 of `C[C@H]1[C@H]2CCC[C@]1(c1cccc(O)c1)CCN2CCc1ccccc1` is reported as 7.44 nM (Oprm1 (Mus musculus, UniProt P42866); GTPγS binding, agonist, radiometric; cell membranes).
For `Cc1cc(O)cc(C)c1CC(N)C(=O)NC1CCNc2c1cc(Cc1ccccc1)cc2C(C)(C)C` (stereo not shown), the EC50 was 9.9 nM (Oprm1 (Rattus norvegicus, UniProt P33535); GTPγS binding, agonist, radiometric; cell membranes).
`NCCCC[C@@H](NC(=O)[C@H](Cc1c[nH]cn1)NC(=O)[C@H](CO)NC(=O)[C@H](Cc1c[nH]c2ccccc12)NC(=O)[C@H](Cc1c[nH]cn1)NC(=O)[C@@H]1CCC(=O)N1)C(=O)N[C@@H](Cc1c[nH]c2ccccc12)C(=O)N[C@@H](Cc1ccc(O)cc1)C(=O)N1CCC[C@H]1C(=O)NCC(N)=O` gave an EC50 of 0.8 ± 0.2 nM (Gonadotropin-releasing hormone receptor; inositol phosphate accumulation, agonist; WPE-1-NB26-3 expressing Gonadotropin-releasing hormone receptor; 60 min, 37 °C, added: 10 mM LiCl).
The EC50 of `CC(C)[C@@H]1NC(=O)[C@H](Cc2ccccc2)NC(=O)[C@H](Cc2ccc(O)cc2)NC(=O)CCSSCCC(=O)N[C@@H](Cc2ccc(O)cc2)C(=O)N[C@@H](Cc2ccccc2)C(=O)N[C@@H](C(C)C)C(=O)N[C@@H](CC(N)=O)C(=O)N[C@H](C(=O)N2CCC[C@H]2C(=O)N[C@H](CCCNC(=N)N)C(=O)NCC(N)=O)CSSC[C@@H](C(=O)N2CCC[C@H]2C(=O)N[C@H](CCCNC(=N)N)C(=O)NCC(N)=O)NC(=O)[C@H](CC(N)=O)NC1=O` is reported as 78 nM (AVPR1A (Homo sapiens, UniProt P37288); inositol phosphate, agonist).
With `CCCCCCCCCC(=O)CC(=O)Nc1ccccc1` the EC50 was 920 nM (lasR; reporter gene, agonist; Escherichia coli, JLD271 with LasR plasmid).
With `CCc1noc(CC)c1C(=O)O[C@H]1C(C)=C[C@]23C(=O)[C@@H](C=C(CO)[C@@H](O)[C@]12O)[C@H]1[C@@H](C[C@H]3C)C1(C)C` the EC50 was 0.9 nM (PRKCG (Homo sapiens, UniProt P05129); enzyme activity, activator).
With `CC(=O)N[C@@H](CCCNC(=N)N)C(=O)N[C@@H](CCCNC(=N)N)C(=O)N[C@H](C(=O)N1Cc2ccccc2C[C@H]1C(N)=O)[C@@H](c1ccccc1)c1c[nH]c2ccccc12` the EC50 was over 100000 nM (Melanocortin receptor 5; cAMP, agonist, AlphaScreen).
`Cc1cc(O)cc(C)c1CC(N)C(=O)NC1CCNc2c(C(=O)NCc3ccccc3)cc(Cc3ccccc3)cc21` (stereo not shown) gave an EC50 of 3.4 nM (Oprm1 (Rattus norvegicus, UniProt P33535); GTPγS binding, agonist, radiometric; cell membranes).
For `CC(=O)N1CCCC[C@H]1C(=O)NC(C)(C)C(=O)N1CCCC[C@H]1C(=O)NC(C)(C)C(=O)NC(C)(C)C(=O)N[C@@H](CC(C)C)C(=O)NCCC(=O)N[C@@H](C)C(=O)NC(C)(C)C(=O)NC(C)(C)C(=O)N1CCCC[C@H]1C(=O)NC(C)(C)C(=O)NCC(=O)N[C@@H](CC(C)C)C(=O)NC(C)(C)C(=O)N[C@@H](CC(C)C)C[N+]1=C2CCCN2CCC1`, the EC50 was 1.2 ± 0.4 nM (ATP5F1B/ATP5F1A/ATP synthase F(1) complex subunit gamma, mitochondrial; ATP production, inhibitor; permeabilized MCF7).
With `CC(=O)N[C@@H](CCCNC(=N)N)C(=O)N[C@@H](CCCNC(=N)N)C(=O)N[C@H](Cc1ccc(I)cc1)C(=O)N[C@H](C(N)=O)[C@H](c1ccccc1)c1c[nH]c2ccccc12` the EC50 was 240 nM (Melanocortin receptor 5; cAMP, agonist, AlphaScreen).
`C[C@@H]1NC(=O)[C@H](CC(N)=O)NC(=O)[C@H](Cc2c[nH]c3ccccc23)NC(=O)[C@H](CCCNC(=N)N)NC(=O)[C@@H](Cc2ccccc2)NC(=O)[C@H](Cc2c[nH]cn2)NC(=O)[C@@H](NC(=O)[C@@H](N)Cc2ccc(O)cc2)CCCn2cc(nn2)-c2cccc(c2)-c2cn(nn2)CCC[C@@H](C(=O)N[C@@H](Cc2ccc(O)cc2)C(N)=O)NC(=O)[C@H](Cc2ccccc2)NC1=O` gave an EC50 of 1940 ± 687 nM (Melanocortin receptor 3; agonist).
The EC50 of `CC(=O)N1CCCC[C@H]1C(=O)NC(C)(C)C(=O)N1CCCC[C@H]1C(=O)NC(C)(C)C(=O)NC(C)(C)C(=O)N[C@@H](CC(C)C)C(=O)N[C@@H](C)CC(=O)NCC(=O)NC(C)(C)C(=O)NC(C)(C)C(=O)N1CCCC[C@H]1C(=O)NC(C)(C)C(=O)NCC(=O)N[C@@H](CC(C)C)C(=O)NC(C)(C)C(=O)N[C@@H](CC(C)C)C[N+]1=C2CCCN2CCC1` is reported as 0.92 ± 0.17 nM (ATP5F1B/ATP5F1A/ATP synthase F(1) complex subunit gamma, mitochondrial; ATP production, inhibitor; permeabilized MCF7).
The EC50 of `Cc1cc(O)c(I)c(C)c1C[C@H](N)C(=O)N[C@H](C)C(=O)N[C@@H](Cc1ccccc1)C(=O)N[C@@H](Cc1ccccc1)C(N)=O` is reported as 17 ± 1 nM (Oprm1 (Mus musculus, UniProt P42866); agonist).
The EC50 of `CCCCCC(=O)CC(=O)N[C@H]1CCOC1=O` is reported as 4500 nM (lasR; reporter gene, agonist; Escherichia coli, JLD271 with LasR plasmid).
With `C[n+]1ccc(C(=O)NC2CCC3(O)C4Cc5ccc(O)c6c5C3(CC[N+]4(C)CC3CC3)C2O6)cc1` (stereo not shown) the EC50 was 240 nM (Oprm1 (Mus musculus, UniProt P42866); GTPγS binding, agonist, radiometric; cell membranes).
The EC50 of `C#CCC[C@H](NC(=O)[C@H](Cc1c[nH]c2ccccc12)NC(=O)[C@H](CCCNC(=N)N)NC(=O)[C@@H](Cc1ccccc1)NC(=O)[C@H](Cc1c[nH]cn1)NC(=O)[C@H](CCN=[N+]=[N-])NC(=O)[C@H](CCCC)NC(C)=O)C(N)=O` is reported as about 0.05 nM (Melanocortin receptor 5; reporter gene, agonist).
With `CC(=O)N[C@@H](Cc1ccc(O)cc1)C(=O)N[C@@H](CCCNC(=N)NC(=O)NCCCCN)C(=O)N[C@@H](CC(C)C)C(=O)N[C@@H](CCCNC(=N)N)C(=O)N[C@@H](Cc1ccc(O)cc1)C(N)=O` the EC50 was 1460 nM (NPY4R (Homo sapiens, UniProt P50391); calcium signal, agonist).
The EC50 of `CC(C)C[C@H](NC(=O)[C@@H](CCCNC(=N)N)NC(=O)[C@H](Cc1c[nH]cn1)NC(=O)[C@H](CO)NC(=O)[C@H](Cc1c[nH]c2ccccc12)NC(=O)[C@H](Cc1c[nH]cn1)NC(=O)[C@@H]1CCC(=O)N1)C(=O)N[C@@H](CCCNC(=N)N)C(=O)N1CCC[C@H]1C(=O)NCC(N)=O` is reported as 21.2 ± 6.9 nM (Gonadotropin-releasing hormone receptor; inositol phosphate accumulation, agonist; WPE-1-NB26-3 expressing Gonadotropin-releasing hormone receptor; 60 min, 37 °C, added: 10 mM LiCl).
`C[C@@H]1NC(=O)[C@H](CC(N)=O)N2C[C@H](Cc3c[nH]c4ccccc34)NC(=O)[C@H](CSCC2=O)NC(=O)[C@H](CCCNC(=N)N)NC(=O)[C@@H](Cc2ccccc2)NC(=O)[C@H](Cc2c[nH]cn2)NC(=O)[C@@H](NC(=O)[C@@H](N)Cc2ccc(O)cc2)CSSC[C@@H](C(=O)N[C@@H](Cc2ccc(O)cc2)C(N)=O)NC(=O)[C@H](Cc2ccccc2)NC1=O` has an EC50 of 255 nM (Melanocortin receptor 3; reporter gene, agonist).
`CCCCCCCCCC(=O)CC(=O)NC1CCCCC1=O` (stereo not shown) has an EC50 of 240 nM (lasR; reporter gene, agonist; Escherichia coli, JLD271 with LasR plasmid).
`C[C@H](N)C(=O)N[C@@H](CCCNC(=N)N)C(=O)N[C@@H](Cc1ccc(O)cc1)C(=O)NCC(=O)N[C@@H](Cc1ccccc1)C(=O)N[C@@H](C)C(N)=O` has an EC50 of 13.6 nM (Cholecystokinin-like receptor CKR-1 (Caenorhabditis elegans, UniProt P91487); ion current, agonist, two-electrode voltage clamp; Caenorhabditis elegans, Xenopus laevis oocytes; pH 7.3, holding -80 mV).
`CS(=O)(=O)c1cccc(OCCCC(=O)NC2CC3CC3C2O)c1` (stereo not shown) gave an EC50 of over 100000 nM (lasR (Pseudomonas aeruginosa, UniProt P25084, T75V); reporter gene, agonist; Escherichia coli lasB-lux reporter).
`O=C(NCc1cc(Br)cc(Br)c1OC(=O)c1ccccc1[N+](=O)[O-])c1ccccc1Cl` gave an EC50 of about 8 nM (lasR; reporter gene, agonist; Escherichia coli, JLD271 pJN105L pSC11).
The EC50 of `Cc1cc(O)cc(C)c1CC(N)C(=O)NC1CCNc2c(Cc3ccccc3)cc(Cc3ccccc3)cc21` (stereo not shown) is reported as 4 nM (Oprm1 (Rattus norvegicus, UniProt P33535); GTPγS binding, agonist, radiometric; cell membranes).
